Measurements gathered from unrelated publications.
Every numbered part comes from another study and shows a few of its results, in no order. Changes are numbered by the printed parent chain.

Sample 1 — method: protein binding microarray; form: double-stranded DNA, one strand shown; matrix: in vitro; concentration: not given; reference: not given; reading: higher = stronger binding; quantity: E-score
Target: Histone acetyltransferase KAT6A, both winged helices, GST fusion (KAT6A, Homo sapiens, UniProt Q92794, residues 1-181)
Setting: 8-mer, flanks averaged, mean of 2 arrays, mostly near background
Residues (chain): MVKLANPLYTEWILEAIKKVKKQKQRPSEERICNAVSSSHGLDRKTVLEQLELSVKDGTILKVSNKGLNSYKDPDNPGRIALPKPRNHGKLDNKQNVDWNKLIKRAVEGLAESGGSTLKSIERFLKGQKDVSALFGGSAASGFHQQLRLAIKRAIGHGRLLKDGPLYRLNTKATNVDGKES
Sequence = GAACCCAA; result = -0.0953
Sequence = ATGGGCCA; result = -0.256
Sequence = CATAGAGC; result = -0.0108
Sequence = GCCCCCGA; result = 0.0474
Sequence = CCCCCCTA; result = -0.219
Sequence = GGCTGAGA; result = -0.14
Sequence = GGCTCCAC; result = -0.105
Sequence = GACTGAGC; result = -0.0212
Sequence = ATCCAAGG; result = -0.0618
Sequence = ATTGTCAA; result = -0.087
Sequence = CCATGCCG; result = 0.16
Sequence = CCCGTTCC; result = 0.11
Sequence = ATAACGAG; result = -0.162
Sequence = CACATTTC; result = -0.0154
Sequence = GCGTACGA; result = 0.195
Sequence = AATCTTAT; result = -0.0295
Sequence = GGCCGACA; result = 0.169
Sequence = GCAGATAC; result = -0.0366
Sequence = CCCGTTAA; result = 0.204
Sequence = AACGTAAC; result = -0.0248
Sequence = CATAGCCA; result = -0.166
Sequence = CGTGACAG; result = 0.0419
Sequence = CACCACTA; result = -0.223
Sequence = AATCCGAA; result = -0.0423
Sequence = AGGTGATC; result = -0.12

Sample 2 — method: aptamer microarray, sandwich; form: DNA with 2'F-ANA; matrix: in vitro; concentration: 200 nM; together with: Cy3 exosite-II aptamer, 400 nM; reading: higher = stronger binding; quantity: mean fluorescence intensity; sequence: GGTTGGTGTGGTTGG
Target: Prothrombin, mature alpha-thrombin (F2, Homo sapiens, UniProt P00734)
Setting: whole 15-mer aptamer, many near background
Modification = 2'F-ANA at 2 4 5 6 7 8 9 10 12 14; result = 42.5 a.u.
Modification = 2'F-ANA at 2 6 7 8 12 13 15; result = 477 a.u.
Modification = 2'F-ANA at 5 6 7 9 10 11 13 14; result = 47.8 a.u.
Modification = 2'F-ANA at 1 2 3 4 5 7 8 11 12 13 14; result = 52 a.u.
Modification = 2'F-ANA at 3 6 8 11 14; result = 565 a.u.
Modification = 2'F-ANA at 2 5 7 9 10 11 12 13 14; result = 45.8 a.u.
Modification = 2'F-ANA at 3 4 5 8 9 13 15; result = 65.6 a.u.
Modification = 2'F-ANA at 4 7 8 12 15; result = 791 a.u.
Modification = 2'F-ANA at 2 3 4 5 7 8 9 10 11 13 14; result = 49.8 a.u.
Modification = 2'F-ANA at 1 2 4 7 9 10 11 14 15; result = 48.9 a.u.
Modification = 2'F-ANA at 3 4 5 6 7 9 11 13 15; result = 56.4 a.u.
Modification = 2'F-ANA at 3 4 5 6 10 12 13; result = 72.7 a.u.
Modification = 2'F-ANA at 2 3 6 7 8 9 10 12 15; result = 392 a.u.
Modification = 2'F-ANA at 1 2 4 5 6 9; result = 56.4 a.u.
Modification = 2'F-ANA at 2 3 4 5 6 7 8 10 12; result = 58.4 a.u.
Modification = 2'F-ANA at 1 3 4 5 6 7 11 12 13; result = 66.1 a.u.
Modification = 2'F-ANA at 3 4 6 8 10 12 15; result = 266 a.u.

Sample 3 — method: DHFR PCA, deep sequencing; matrix: yeast; together with: (+)-ABA 200 µM; reference: wild-type fitted maximum; reading: higher = stronger binding; quantity: relative binding score
Target: ABI1, truncated, D143A, DHFR fusion (Arabidopsis thaliana)
Setting: methotrexate growth selection, single substitutions
Parent: PYL1, truncated, DHFR fusion (Arabidopsis thaliana); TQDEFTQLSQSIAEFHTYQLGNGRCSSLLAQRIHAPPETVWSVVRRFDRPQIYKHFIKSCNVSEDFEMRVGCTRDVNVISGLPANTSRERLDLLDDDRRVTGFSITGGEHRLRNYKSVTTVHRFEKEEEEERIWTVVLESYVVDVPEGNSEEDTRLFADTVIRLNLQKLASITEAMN
Variant = A30M; result = 102%
Variant = S11M; result = 92.9%
Variant = H122Y; result = 27.4%
Variant = H55E; result = 98.2%
Variant = S42W; result = 74.3%
Variant = Q31P; result = -1.4%
Variant = R155D; result = -6.05%
Variant = E147N; result = 89.4%
Variant = I105N; result = 52.4%
Variant = C72R; result = 86.6%
Variant = D97N; result = 107%
Variant = H34C; result = 101%
Variant = Q7Y; result = 97.5%
Variant = I172P; result = -11.2%
Variant = L82C; result = 79.6%
Variant = D96I; result = 28.2%
Variant = N85K; result = 106%

Sample 4 — target: CCND3, cyclin fold, Cln2 fusion (human); method: yeast growth competition, sequencing; matrix: yeast; setting: weak parent motif; reference: not given; reading: higher = stronger binding; quantity: normalised enrichment score
Parent: RB1 docking peptide (human); PKPLKKLRFDIEG
Variant = L4D; result = 0.278
Variant = G13E; result = 0.102
Variant = D10K; result = 0.211
Variant = R8G; result = 0.104
Variant = P3G; result = 0.114
Variant = K5W; result = 0.0904
Variant = K5I; result = 0.141
Variant = P3S; result = 0.197
Variant = K6C; result = 0.0463
Variant = K6H; result = 0.18
Variant = G13C; result = 0.147
Variant = R8P; result = 0.154
Variant = R8H; result = 0.119
Variant = F9S; result = 0.0178
Variant = E12L; result = 0.263
Variant = R8S; result = 0.0846
Variant = K5N; result = 0.0937
Variant = I11V; result = 0.0979
Variant = K6Q; result = 0.0335
Variant = F9R; result = 0.0295
Variant = P3H; result = 0.00234
Variant = D10F; result = 0.14
Variant = K6I; result = 0.15
Variant = R8T; result = 0.202
Variant = F9H; result = 0.0967

Sample 5 — target: HLF, bZIP domain (human); method: DHFR protein complementation; matrix: yeast; reference: wild-type JUN-FOS pair; reading: higher = stronger binding; quantity: binding fitness
Setting: single substitutions, most at no-binding floor
Parent: JUN, bZIP domain (human); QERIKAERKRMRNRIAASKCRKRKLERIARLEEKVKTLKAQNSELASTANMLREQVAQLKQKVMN; partner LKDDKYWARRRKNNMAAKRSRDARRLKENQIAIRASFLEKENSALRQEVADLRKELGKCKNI
Variant = L45W; result = -1.52 natural log
Variant = T37V; result = -1.48 natural log
Variant = A40N; result = -1.39 natural log
Variant = K39Y; result = -1.32 natural log
Variant = T48C; result = -1.46 natural log
Variant = E32L; result = -1.39 natural log
Variant = R30I; result = -1.49 natural log
Variant = I28W; result = -1.4 natural log
Variant = A40D; result = -1.06 natural log
Variant = S47R; result = -1.31 natural log
Variant = A49L; result = -1.4 natural log
Variant = K39F; result = -1.46 natural log

Repeated from above (sample 2):
Modification = 2'F-ANA at 3 4 5 8 9 13 15; result = 65.6 a.u.
Modification = 2'F-ANA at 4 7 8 12 15; result = 791 a.u.
Modification = 2'F-ANA at 2 3 4 5 7 8 9 10 11 13 14; result = 49.8 a.u.
Modification = 2'F-ANA at 1 2 4 7 9 10 11 14 15; result = 48.9 a.u.
Modification = 2'F-ANA at 3 4 5 6 7 9 11 13 15; result = 56.4 a.u.
Modification = 2'F-ANA at 3 4 5 6 10 12 13; result = 72.7 a.u.
Modification = 2'F-ANA at 2 3 6 7 8 9 10 12 15; result = 392 a.u.
